Assay results from different studies.
Numbered parts are unrelated; each lists some results of a single study. Several values in a cell are separate wells, animals, samples, runs or records.
UniProt Q9Y243, sequence (whole entry, looked up): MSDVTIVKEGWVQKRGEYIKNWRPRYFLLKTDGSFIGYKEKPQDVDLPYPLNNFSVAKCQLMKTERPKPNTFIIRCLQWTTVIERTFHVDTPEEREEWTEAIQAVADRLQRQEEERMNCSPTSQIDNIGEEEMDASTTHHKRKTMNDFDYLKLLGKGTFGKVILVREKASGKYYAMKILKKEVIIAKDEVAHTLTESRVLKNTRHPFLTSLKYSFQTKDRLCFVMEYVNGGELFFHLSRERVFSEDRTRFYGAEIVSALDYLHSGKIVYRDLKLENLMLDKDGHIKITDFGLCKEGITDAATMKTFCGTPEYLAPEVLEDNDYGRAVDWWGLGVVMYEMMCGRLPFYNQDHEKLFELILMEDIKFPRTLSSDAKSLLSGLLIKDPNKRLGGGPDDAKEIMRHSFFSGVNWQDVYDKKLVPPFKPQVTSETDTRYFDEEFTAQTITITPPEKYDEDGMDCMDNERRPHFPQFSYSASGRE

Sample 1 — cell line: mouse MPNST tumor cells; method: high-content nuclear imaging; item: cell number; concentration: 10 µM; time: 12 h; notes: mean of 2 replicates; baseline: plate mean; reading: higher = more cells
SMILES	nuclei count
O=C(C1CC1)N1CC[C@@H](Cc2n[nH]c(=O)n2-c2ccc(-c3ccc4occc4c3)cc2)C1	1.56 z-score
Oc1ncnc2[nH]ncc12	2.23 z-score and 1.22 z-score
Nc1ncnc2c1ncn2[C@@H]1O[C@H](CO)[C@@H](O)[C@@H]1O	1.28 z-score
CCOC(=O)c1cc(C#N)c(N2CCC(C(=O)NS(=O)(=O)Cc3ccccc3)CC2)nc1C	0.255 z-score
CCN[C@H]1CN(CCCOC)S(=O)(=O)c2sc(S(N)(=O)=O)cc21	-0.442 z-score
CC(=O)O[C@]1(C(C)=O)CC[C@H]2[C@@H]3C=C(Cl)C4=CC(=O)CC[C@]4(C)[C@H]3CC[C@@]21C	3.13 z-score
CN(C)CCCN1c2ccccc2Sc2ccc(C(F)(F)F)cc21	-5.43 z-score
O=S(=O)(O)c1cc(O)ccc1O	0.786 z-score
CC1(C)CCC(C)(C)c2cc(C(=O)Nc3ccc(C(=O)O)cc3)ccc21	-0.252 z-score
O=C(O)C[C@H]1CC[C@H](c2ccc(NC(=O)c3nnc(Nc4ccc(F)c(F)c4)o3)cc2)CC1	3.3 z-score
CN(C)CCC(c1ccccc1)c1ccccn1 (centres unmarked)	-0.0174 z-score

Sample 2 — host: mouse; sample: microsomes or S9; concentration: 2 µM; time: 0.5 h
SMILES	remaining compound [%]
CCCCOC(=O)c1ccc(NC(=O)c2c(OCC)cc(=O)n3c2CCCC3)cc1	0.555
CC(=O)Nc1ccc(Nc2ncnc3c2cnn3-c2cccc(C)c2)cc1	56.3
CN(C(=O)c1ccc2cc[nH]c2c1)C1CCc2nn(C)c(=O)n2CC1 (centres unmarked)	> 100
Cc1cc(C(=O)N2CCOCC2)c2c(=O)n(Cc3ccccc3C)c(=O)n(-c3ccccc3)c2n1	10.9
Cc1nn(C)cc1Nc1nnc(Cn2nc(C(F)(F)F)c(Cl)c2C)s1	29.6
CC(=O)N1c2ccc(S(=O)(=O)Nc3ccc(C(=O)c4c(C)nc5sccn45)cc3)cc2CC1C (centres unmarked)	7.12
Cc1ccc(N(CCO)C2=NS(=O)(=O)c3ccccc32)cc1	17
Cc1ccc(C(=O)/N=c2\c(C)cccn2C(=O)c2ccc(C)o2)o1	0.0767

Sample 3 — method: phase 2a trial; host: idiopathic pulmonary fibrosis patients
SMILES: CC(C)n1cnc(-c2ccc(F)cc2)c1-c1ncc(C(=O)Nc2ccc(N3CCN(C)CC3)cc2)[nH]1
conditions	patients with leukocytosis
30 mg once daily, grade 4 emergent event	0%
all arms, grade 3 emergent event	0%
all arms, grade 5 emergent event	0%
60 mg once daily, grade 3 emergent event	0%
30 mg once daily, grade 2 emergent event	0%
60 mg once daily, grade 2 emergent event	0%

Sample 4 — observed: enzyme activity; mode: inhibitor; concentration: 0.5 µM; baseline: control
Target: Serine/threonine-protein kinase STK11 (STK11, Homo sapiens, UniProt Q15831)
UniProt Q15831, sequence (whole entry, looked up): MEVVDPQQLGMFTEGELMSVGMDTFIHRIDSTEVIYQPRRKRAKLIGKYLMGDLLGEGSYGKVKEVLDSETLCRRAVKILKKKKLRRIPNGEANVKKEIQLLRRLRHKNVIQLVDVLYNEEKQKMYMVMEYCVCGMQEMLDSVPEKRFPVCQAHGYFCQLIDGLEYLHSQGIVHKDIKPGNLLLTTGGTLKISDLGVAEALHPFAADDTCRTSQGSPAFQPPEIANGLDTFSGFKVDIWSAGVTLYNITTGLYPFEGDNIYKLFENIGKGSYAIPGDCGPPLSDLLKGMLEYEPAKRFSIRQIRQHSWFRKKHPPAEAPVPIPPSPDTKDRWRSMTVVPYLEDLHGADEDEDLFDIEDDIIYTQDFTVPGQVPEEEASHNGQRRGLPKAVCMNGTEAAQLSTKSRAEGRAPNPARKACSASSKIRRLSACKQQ
SMILES	remaining activity [%]
CCOc1nc(NC(=O)Cc2cc(OC)ccc2OC)cc(N)c1C#N	96.4
Cc1cn(-c2cc(NC(=O)c3ccc(C)c(Nc4nccc(-c5cccnc5)n4)c3)cc(C(F)(F)F)c2)cn1	109
O=C(NC(NC(=S)Nc1ccc(F)c([N+](=O)[O-])c1)C(Cl)(Cl)Cl)C(c1ccccc1)c1ccccc1 (centres unmarked)	94.2
COc1cc2c(cc1OC)-c1[nH]nc(Nc3cccc(F)c3)c1C2	104
CN([C@@H](Cc1ccc(OS(=O)(=O)c2cccc3cnccc23)cc1)C(=O)N1CCN(c2ccccc2)CC1)S(=O)(=O)c1cccc2cnccc12	99
CCN(CC)C(=O)c1ccc(Nc2nc(OCC3CCCCC3)c3[nH]cnc3n2)cc1	85.2
O=C1C(Cl)=C(N2C(=O)CCC2=O)C(=O)c2ccccc21	99.8
C[C@@H]1CCN(C(=O)CC#N)C[C@@H]1N(C)c1ncnc2[nH]ccc12	104
CCN(CC)CCNC(=O)c1c(C)[nH]c(/C=C2\C(=O)Nc3ccc(F)cc32)c1C	97.2
O=C1c2ccccc2-c2n[nH]c3cccc1c23	53.9
N#Cc1c(NC(=O)c2cccc3ccccc23)sc2c1CCCC2	96.1
Nc1cccc(-c2cc3c(Oc4cccc(O)c4)ncnc3[nH]2)c1	12.4
Cn1nc2c3c(cccc31)C(=O)c1ccccc1-2	87.7
O=C(Nc1cccc(Nc2nccc(Nc3cccc(C(F)(F)F)c3)n2)c1)C1CC1	82.8
Cc1nc2cc3nc(-c4cccs4)cnc3cc2n1C	89.6
COc1cc2ncnc(Nc3cccc(Cl)c3)c2cc1OC	96.8
CN(C)C[C@H]1CCn2c(c(C3=C(c4cn(C)c5ccccc45)C(=O)NC3=O)c3ccccc32)C1	91.9
N#C/C(=C\c1ccc(O)c(O)c1)C(=O)NCc1ccccc1	97.4
O=c1cc(-c2cccc3c2Sc2ccccc2S3)oc(N2CCOCC2)c1	96.5
CCN(CC)CCNC(=O)c1c(C)[nH]c(/C=C2\C(=O)Nc3ccc(Cl)cc32)c1C	80.7
Ic1cccc(CSc2nnc(-c3ccncc3)o2)c1	103
c1ccc(-c2[nH]ncc2-c2ccnc3ccccc23)nc1	82.6
Cc1cc2ncc(-c3ccccc3)nc2cc1C	94
COc1cc2ncnc(Nc3ccc(O)c(Br)c3)c2cc1OC	103

Other studies, line by line
SMILES	target	assay	test system	measurement	result
NC1(c2ccc(-c3nc4c(O)ccnn4c3-c3ccccc3)cc2)CCC1	RAC-gamma serine/threonine-protein kinase (AKT3, Homo sapiens, UniProt Q9Y243)	target engagement, NanoBRET	live cells	EC50	> 50 µM
